Measurements gathered from unrelated publications.
Parts stem from different laboratories: compare values within a part only. Changes are numbered by the printed parent chain.

Block 1 — technique: protein-binding microarray; form: double-stranded DNA, one strand shown; sample: in vitro; concentration: 2200 nM top; notes: 60-bp whole probe; with: salmon DNA 0.4 mg/ml; baseline: random background probes; direction: higher = stronger binding; all sequences stand within: GCCTAGCAC … GTCTTGATTCGCTTGACGCTGCTG
Target: Interferon regulatory factor 7, full length, phosphomimetic (IRF7, Homo sapiens, UniProt Q92985, residues 1-503, S471D/S472D/S475D/S476D/S477D/S483D/S484D/S487D)
Sequence of UniProt Q92985 (whole entry, unmodified, looked up): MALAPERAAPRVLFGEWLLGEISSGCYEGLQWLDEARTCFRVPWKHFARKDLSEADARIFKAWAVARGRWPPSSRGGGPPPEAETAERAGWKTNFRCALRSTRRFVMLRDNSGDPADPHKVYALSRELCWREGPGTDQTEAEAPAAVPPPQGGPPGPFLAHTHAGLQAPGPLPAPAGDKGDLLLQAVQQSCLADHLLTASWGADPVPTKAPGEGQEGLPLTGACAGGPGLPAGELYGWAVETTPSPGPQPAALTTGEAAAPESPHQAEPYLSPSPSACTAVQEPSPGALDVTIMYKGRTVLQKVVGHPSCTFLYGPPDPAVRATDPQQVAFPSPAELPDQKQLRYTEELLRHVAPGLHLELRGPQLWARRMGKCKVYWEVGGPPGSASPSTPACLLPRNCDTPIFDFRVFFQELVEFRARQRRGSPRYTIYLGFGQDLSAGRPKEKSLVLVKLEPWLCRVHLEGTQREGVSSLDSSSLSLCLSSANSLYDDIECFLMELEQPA
Oligonucleotide	fitted relative affinity [z-score]
CTAGGTTTCGGTCTCGGTTAGTGCTAG	6.74
TTATGTATCGACTATCGGTTAGTGCTA	1.07
TTAGGACTGCTAATCCTTTAGTGCTAG	-0.145
TTCCAATTCTCTTTTCACTTGTGCTAG	3.24
TTAGATGTCAGTTCCGATTAGTGCTAG	0.994
TTAGGTATCGACACCGGGTTAGTGCTA	-0.0271
GACGCTTTCGACTTTCGGGACGTGCTA	9.72
TCAAGCATTACTTTAGGACTGTGCTAG	-0.0853
TCAATTCTCGGGACTCACACTGTGCTA	0.863
TCAACACTAGTTTTTACACTGTGCTAG	0.58
TGCAACATCTACAATGGCTTTGTGCTA	-0.0825
TCACTTTCCTTTATGTCACTGTGCTAG	5.66
GACGATATCGGGTTTCGAGATGTGCTA	1.89
AATGGAACAAATATGTTTATGTGCTAG	-0.348
GACGGACTGGGACTGGAGACGTGCTAG	-0.671
GACGATATCAGTCGCGAGACGTGCTAG	0.0016
TTAGGTCTCCTTATCCTTTCGTGCTAG	1.42
TTAGGAATGCTACTGCTTTAGTGCTAG	-0.272
GTAGATCTCAGACTGGATTAGTGCTAG	0.00471

Block 2 — target: CCNB1, cyclin fold, Cln2 fusion (human); technique: yeast growth competition, sequencing; sample: yeast; notes: strong parent motif; baseline: not given; direction: higher = stronger binding
Parent: MICAL3 docking peptide (human); LQLRRQLSFSEDS
Change	normalised enrichment score
LQLRRVLSFSEDS [Q6V]	3.14
LQLRRQLSRSEDS [F9R]	0.315
LQLRRQDSFSEDS [L7D]	-0.458
LQLRRQISFSEDS [L7I]	1.61
LQLRMQLSFSEDS [R5M]	0.631
LQLQRQLSFSEDS [R4Q]	3.17
LQLVRQLSFSEDS [R4V]	4.89
LPLRRQLSFSEDS [Q2P]	5.54
LQLRRQLSFLEDS [S10L]	1.79
LQLRRQLSFSELS [D12L]	3.69
LQLRRQLSFMEDS [S10M]	2
LQYRRQLSFSEDS [L3Y]	1.65
LQLRRILSFSEDS [Q6I]	1.36
LQLREQLSFSEDS [R5E]	0.248
LQLRRYLSFSEDS [Q6Y]	1.47
LQLRPQLSFSEDS [R5P]	0.0473
LKLRRQLSFSEDS [Q2K]	5.39

Block 3 — technique: protein binding microarray; form: double-stranded DNA, one strand shown; sample: in vitro; concentration: not given; baseline: not given; direction: higher = stronger binding
Target: Histone acetyltransferase KAT6A, winged helix 2, GST fusion (KAT6A, Homo sapiens, UniProt Q92794, residues 85-181)
Notes: 8-mer, flanks averaged, mean of 2 arrays, mostly near background
Target sequence (chain): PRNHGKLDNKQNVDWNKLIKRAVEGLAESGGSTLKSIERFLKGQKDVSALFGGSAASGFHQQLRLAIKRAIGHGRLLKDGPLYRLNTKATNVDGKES
Oligonucleotide	E-score
CCCCTAAG	-0.147
GAGTGATC	-0.00685
CATGAAAC	0.0535
AGACCTTA	-0.0521
ATTTGGTG	0.0041
CCCAACGA	-0.031
GGGCGACC	0.0426
AACTCAAA	0.0437
AGGCCACT	-0.061
TCGGTGAA	-0.105
AATTTCCC	-0.121
CTGAGTCC	-0.00314
AGTGACCC	-0.062
ACCACGAG	-0.0941
CTTAATTA	0.134
CAACTCTG	0.0453
CAACAGCC	-0.0109
GATGCGAC	0.0823

Block 4 — technique: RNA Bind-n-Seq; form: RNA; sample: in vitro; concentration: not given; baseline: input RNA pool; direction: higher = stronger binding
Target: RING finger protein unkempt homolog, zinc fingers 1-6, GST-SBP tag (UNK, Homo sapiens, UniProt Q9C0B0, residues 30-357)
Notes: RNA with constant flanks, human and mouse sites, ends assumed
All sequences stand within: GGGAGUUCUACAGUCCGACGAUC … CAACAGAGGAUUGAGCAUCA
Target sequence (chain): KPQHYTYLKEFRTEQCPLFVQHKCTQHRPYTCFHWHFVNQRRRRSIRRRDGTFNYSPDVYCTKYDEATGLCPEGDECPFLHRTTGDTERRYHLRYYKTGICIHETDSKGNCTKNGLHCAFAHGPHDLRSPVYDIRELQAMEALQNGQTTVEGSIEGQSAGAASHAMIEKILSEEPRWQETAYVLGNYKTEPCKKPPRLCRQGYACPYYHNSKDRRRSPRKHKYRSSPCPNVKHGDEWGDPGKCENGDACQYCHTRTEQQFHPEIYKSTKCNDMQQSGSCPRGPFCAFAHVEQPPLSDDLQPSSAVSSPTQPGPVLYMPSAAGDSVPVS
Oligonucleotide	bound/input enrichment
ACCUCUUUAGUGUGUUCUGUGACGCUGCUCAUUACGAUUCUGUGUUCUACUUUGAUCCUUUUAGCUGUUUUCAAAUAUGGCCACUUUUCCCUGUAAGUUUUGUACAGCUAAGUGUUUUCU	0.535 ratio
AGCUCAACAAUUGAGGCAGAGGAACAAAAGAUACCCGAAGACAGUAUCUAUAUUGGAACUGCCAGUGAUGAUUCUGAUAUUGUUACCCUUGAGCCACCUAAGUUAGAAGAAAUUGGAAAU	2.73 ratio
CUACCCUUGGCACAGGCCUCCAGUGAGCCUGUUCUGUUUCAGAAGAAAGGGGAAGCAGUGUAGCAUUUUUUGUUUGGUCUCUUAAAAAUGUGGUUAAAUCCACUAUUUUUUGCUCCUGUA	0.245 ratio
CUGACCUUGGAAGGAGGAUACCCACCACUGGAGGCUGGAGCCACUGGAAAGAGGCGUUAAAAAUUUUGCAGUUAUUUAUCUUGUGGAUAUUACAGAAGUGCCUGACUUCAACAAAAUGUA	0.364 ratio
UGGAUCGAGGGUGAUGAGCUGCACCUGGAGAUGAGAGUGGAAGGUGUGGUCUGCAAGCAAGUAUUCAAGAAGGUGCAGUGAGGCCCAGGCAGACAACCUUGUCCCAAGGAAUCAGCAGGA	0.124 ratio
CUGGCGGUGGAGGCGUGCGUGAACAUCGCCCAGCUUCUGCCCCAGGAGGAUCUGGAGGCCCUGGUGAUGCCCACUCUGCGCCAGGCCGCUGAAGACAAGUCCUGGCGCGUCCGCUACAUG	0.036 ratio
AGCUCCAGUUUGGCGGUUGUGGAUUUAAUUGACGCCAUCCAACCAGGCUGCAUUAACUAUGACCUUGUGAAGAGUGGGAAUCUAACAGAAGAUGACAAGCACAAUAACGCCAAGUACGCA	0.173 ratio
AAGCACUCAAAGCAAAGAAAGAAGAUGGGAAUAAAGCAUUUAAGGAAGGAAAUUACAAACUAGCAUAUGAACUGUACACAGAAGCCCUGGGGAUAGACCCCAACAAUAUAAAAACAAAUG	2.78 ratio
